Measured values of several laboratories.
Each line is one published result; not all experiments were run side by side.
Organism: Human immunodeficiency virus 1

For `COc1ccccc1NS(=O)(=O)c1ccccc1Sc1ccc([N+](=O)[O-])cc1`, the IC50 was > 100 µM (viral replication; MT4; 7 days).
`COc1cc(-c2oc3cc(O)cc(O)c3c(=O)c2O)ccc1O` has an inhibition of > 50% (viral replication, inhibitor; TZM-bl, BAL; 11.1 µM).
For `COc1ccccc1C(=O)Nc1ccccc1Sc1ccc(N)cc1`, the IC50 was 39.8 µM (viral replication; MT4; 7 days).
`COc1ccc(-c2cn(C)c3nc(Cl)ccc23)cc1` gave an IC50 of 79.5 µM (cell growth or viability, MTT; TZM-bl; 48 h).
`O=C(O)c1cc(O)c(O)c(O)c1` gave an inhibition of ~50% (viral replication, inhibitor; TZM-bl, BAL; 11.1 µM).
`Cc1ccc(C)n1Cc1ccc(C(=O)O)cc1` has an EC50 of 15.6 µM (viral replication, inhibitor, ELISA; MT2, IIIB; 96 h).
With `Cc1cc(C)cc(C(=O)c2cc(C)ccc2OCCn2ccc(=O)[nH]c2=O)c1` the EC50 was 0.0544 µM (viral replication, inhibitor, luciferase; TZM-bl, IIIB).
`CC1=C(c2nc(-c3ccc(C#N)cc3)cs2)C(c2cc3ccccc3n2C)NC(=O)N1` (stereo not drawn) has an IC90 of 5 µM (viral replication; MAGI-CCR5, NL43).
`COc1ccccc1C(=O)Nc1ccccc1Sc1ccc([N+](=O)[O-])cc1` has an IC50 of 52 µM (viral replication; MT4; 7 days).
The EC50 of `O=C(c1cc(Cl)cc(Cl)c1)c1cc(Br)ccc1OCCn1ccc(=O)[nH]c1=O` is reported as 0.0255 µM (viral replication, inhibitor, luciferase; TZM-bl, IIIB).
For `COc1ccccc1NS(=O)(=O)c1ccccc1Sc1ccc(N)cc1`, the IC50 was > 100 µM (viral replication; MT4; 7 days).
With `Nc1nc(Nc2ccc(Cl)cc2)nn1S(=O)(=O)c1ccc2ccccc2c1` the EC50 was 0.0093 µM (viral replication, inhibitor, luciferase; TZM-bl, IIIB).

Some of these lines once more:
`COc1ccc(-c2cn(C)c3nc(Cl)ccc23)cc1` gave an IC50 of 79.5 µM (cell growth or viability, MTT; TZM-bl; 48 h).
`O=C(O)c1cc(O)c(O)c(O)c1` gave an inhibition of ~50% (viral replication, inhibitor; TZM-bl, BAL; 11.1 µM).
